Published values collected from several papers.
± marks the error that the study gave.
Organism: Plasmodium falciparum

Compound	test	system	conditions	how to read	endpoint	result
O=C(NCc1nc(-c2ccc(C(F)(F)F)cc2)cs1)[C@H]1CCCN(C(=O)CO[C@@H]2CCCNC2)C1	SYBR Green growth	asexual blood-stage parasites, 3D7	72 h	–	EC50	0.1 ± 0.036 µM
CCc1nc(N)nc(N)c1-c1ccc(Cl)cc1	parasite reduction ratio	3D7	–	–	time to kill 99.9%	56 h
CCOC1=CC(c2ccc[nH]2)=N/C1=C\c1cc(Cc2ccc(OC(F)(F)F)cc2)c(C)[nH]1	parasite growth, SYBR Green fluorescence	Tm90-C2B (atovaquone-resistant), asexual blood stage	72 h	–	IC50	0.00902 µM
CNS(=O)(=O)c1ccccc1Nc1nc(Nc2ccc(N3CCOCC3)cc2OC)ncc1Br	invasion and early ring development	Hyp1-Nluc	10 x growth EC50, 4 h	–	inhibition	73.8%
COCC(=O)N1CCC[C@H](C(=O)NCc2nc(-c3ccc(NC4CC4)nc3)cs2)C1	SYBR Green growth	asexual blood-stage parasites, 3D7	72 h	–	EC50	0.18 ± 0.023 µM
O=C(CC1NCCCC1O)Cn1cnc2cc(Br)c(Cl)cc2c1=O (centres unmarked)	parasite growth	cPRS conditional knockdown line	72 h, added: 50 nM anhydrotetracycline	–	IC50	0.0001 µM
Cc1nnc(-c2ccc3ccn(CC(=O)Nc4ccccc4Cl)c3c2)o1	Giemsa-stained smears	red blood cells, 3D7 Hyp1-Nluc	10 × EC50, 8 h	–	extracellular parasites	8%
CNS(=O)(=O)c1ccccc1Nc1nc(Nc2cc(OC)c(OC)cc2C)ncc1Br	LDH readout	3D7 Hyp1-Nluc	20 µM, 72 h	relative to: DMSO	parasite growth	10.8%
N#Cc1ccc(-c2csc(CNC(=O)[C@H]3CCCN(C(=O)N4CCCC4)C3)n2)cc1	SYBR Green growth	asexual blood-stage parasites, 3D7	72 h	–	EC50	0.26 ± 0.038 µM
CCC1=C(CC)/C(=C/c2[nH]c(Cc3ccc(OC(F)(F)F)cc3)cc2Cc2ccc(OC(F)(F)F)cc2)N=C1c1ccc[nH]1	parasite growth, SYBR Green fluorescence	Dd2 (multidrug-resistant), asexual blood stage	72 h	–	IC50	1.5 µM
COc1ccc(CNc2nc(-c3ccc(C(=O)O)nc3)nc3sc4c(c23)CCCC4)cc1Cl	invasion and early ring development	Hyp1-Nluc	10 x growth EC50, 4 h	–	inhibition	46.4%

For quick reference, copied from above:
Compound	test	system	conditions	how to read	endpoint	result
COc1ccc(CNc2nc(-c3ccc(C(=O)O)nc3)nc3sc4c(c23)CCCC4)cc1Cl	invasion and early ring development	Hyp1-Nluc	10 x growth EC50, 4 h	–	inhibition	46.4%
